Assay results of several laboratories.
Each numbered part is a random draw from the data of one study; scales do not carry over between parts. Changes are numbered by the printed parent chain.

Set 1
Target: CCNE1, cyclin fold, Cln2 fusion (human)
Method: yeast growth competition, sequencing
Sample: yeast
Setting: strong parent motif
Relative to: not given
Direction: higher = stronger binding
Starting sequence: viral docking peptide; KGVKRKLFAEDSS
`KGVKRVLFAEDSS [K6V]` — result for “normalised enrichment score”: 7.27.
`KGVKRFLFAEDSS [K6F]`: “normalised enrichment score” 3.54.
Under “normalised enrichment score”, `AGVKRKLFAEDSS [K1A]` is recorded as 8.32.
Under “normalised enrichment score”, `KGVKRNLFAEDSS [K6N]` is recorded as 5.31.
`KGVKRKLFSEDSS [A9S]`: “normalised enrichment score” 7.46.
For `KGVKRKLFAECSS [D11C]`, “normalised enrichment score” read 7.17.

Set 2
Target: UDP-N-acetylglucosamine--peptide N-acetylglucosaminyltransferase 110 kDa subunit (OGT, Homo sapiens, UniProt O15294)
Sequence of UniProt O15294 (whole entry, looked up): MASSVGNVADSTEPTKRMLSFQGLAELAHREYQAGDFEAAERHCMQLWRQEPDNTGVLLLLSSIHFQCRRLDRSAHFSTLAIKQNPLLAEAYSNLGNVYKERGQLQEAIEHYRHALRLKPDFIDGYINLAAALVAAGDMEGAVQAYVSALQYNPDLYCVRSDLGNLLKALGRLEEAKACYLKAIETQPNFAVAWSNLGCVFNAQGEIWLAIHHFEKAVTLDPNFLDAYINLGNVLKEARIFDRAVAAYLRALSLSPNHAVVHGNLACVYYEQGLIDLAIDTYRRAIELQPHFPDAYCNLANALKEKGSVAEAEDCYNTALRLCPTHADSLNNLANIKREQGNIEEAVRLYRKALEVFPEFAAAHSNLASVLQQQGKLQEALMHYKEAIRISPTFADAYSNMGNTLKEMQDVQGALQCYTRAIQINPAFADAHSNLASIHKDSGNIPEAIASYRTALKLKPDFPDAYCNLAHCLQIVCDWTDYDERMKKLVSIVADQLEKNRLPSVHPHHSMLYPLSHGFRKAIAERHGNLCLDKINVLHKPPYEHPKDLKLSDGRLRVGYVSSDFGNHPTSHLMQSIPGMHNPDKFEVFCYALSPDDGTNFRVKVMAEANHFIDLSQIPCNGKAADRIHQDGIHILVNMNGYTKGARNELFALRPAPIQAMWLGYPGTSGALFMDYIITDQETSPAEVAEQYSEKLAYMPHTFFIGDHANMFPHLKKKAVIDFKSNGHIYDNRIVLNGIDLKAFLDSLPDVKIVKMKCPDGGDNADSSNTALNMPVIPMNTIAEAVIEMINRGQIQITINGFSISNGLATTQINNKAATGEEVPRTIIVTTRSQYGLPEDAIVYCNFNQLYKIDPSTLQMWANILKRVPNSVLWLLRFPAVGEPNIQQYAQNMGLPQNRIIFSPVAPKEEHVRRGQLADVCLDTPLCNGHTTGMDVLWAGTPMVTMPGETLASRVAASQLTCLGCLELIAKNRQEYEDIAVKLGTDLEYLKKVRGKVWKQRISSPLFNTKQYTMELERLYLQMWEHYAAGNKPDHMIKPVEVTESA
Effect on: binding
Method: phage display NGS
Molecule type: peptide
Tested at: concentration not given
Relative to: input library
`HPNPPKDHWFRTHH` — result for “enrichment fold change”: 2.47.
For `YPMHNHHVMYDFHAD`, “enrichment fold change” read 3.94.
Under “enrichment fold change”, `TQTQWKFHHYWESHS` is recorded as 4.29.
`YIERTSVMPQYQITY` — result for “enrichment fold change”: 21.
Under “enrichment fold change”, `VVQQEYRPRYQISFK` is recorded as 4.09.
Under “enrichment fold change”, `QATSPFAPIYQMIRD` is recorded as 6.01.
`HQFDGHSNLHIHSIE`: “enrichment fold change” 3.48.
`HVQDLAVYHSHHWH`: “enrichment fold change” 3.62.

Set 3
Target: tungstate, free oxyanion
Method: microfluidic competitive inhibition
Sample: in vitro, cell-free expressed
Tested at: not given
Setting: derived from inhibition constants, unchanged parent 2230 nM
Direction: lower = stronger binding
Starting sequence: PafA, mature enzyme, eGFP fusion (Elizabethkingia meningoseptica, UniProt Q9KJX5); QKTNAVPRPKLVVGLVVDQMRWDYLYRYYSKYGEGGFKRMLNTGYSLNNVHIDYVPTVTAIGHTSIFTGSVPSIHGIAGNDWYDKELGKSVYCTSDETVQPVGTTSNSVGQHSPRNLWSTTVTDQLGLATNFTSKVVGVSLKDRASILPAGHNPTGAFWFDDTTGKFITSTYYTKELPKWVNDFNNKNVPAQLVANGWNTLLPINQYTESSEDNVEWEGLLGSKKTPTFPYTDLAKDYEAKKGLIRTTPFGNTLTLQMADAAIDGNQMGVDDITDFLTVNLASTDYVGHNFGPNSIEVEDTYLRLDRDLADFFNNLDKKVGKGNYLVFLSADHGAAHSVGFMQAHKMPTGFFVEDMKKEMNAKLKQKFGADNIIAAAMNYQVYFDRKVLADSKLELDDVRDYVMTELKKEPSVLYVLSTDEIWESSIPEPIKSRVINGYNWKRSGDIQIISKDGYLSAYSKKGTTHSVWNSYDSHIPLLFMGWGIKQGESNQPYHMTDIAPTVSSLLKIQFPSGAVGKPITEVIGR
`Q125G`: “oxyanion analog dissociation constant” 2.01 µM.
`D473V` — result for “oxyanion analog dissociation constant”: 1.19 µM.
Under “oxyanion analog dissociation constant”, `T349G` is recorded as 2.01 µM.
For `I476G`, “oxyanion analog dissociation constant” read 1.73 µM.
`T465V`: “oxyanion analog dissociation constant” 1.16 µM.

Single results of other studies
For O=c1c2ccccc2sn1-c1ccccc1, the inhibition was 8.9% (chymotrypsin; enzyme activity, inhibitor; 10 µM, with DTT).

A few entries again (set 1):
Under “normalised enrichment score”, `AGVKRKLFAEDSS [K1A]` is recorded as 8.32.
`KGVKRVLFAEDSS [K6V]` — result for “normalised enrichment score”: 7.27.
